Results pooled from the literature.
Every numbered part comes from another study and shows a few of its results, in no order. Changes are numbered by the printed parent chain.

Block 1
Target: CCNA2, cyclin fold, Cln2 fusion (human)
Method: yeast growth competition, sequencing
Medium: yeast
Notes: strong parent motif
Baseline: not given
Reading: higher = stronger binding
Starting sequence: viral docking peptide; KKVKRRLFETREL
| Substitution | normalised enrichment score |
| --- | --- |
| E12A | 5.38 |
| F8A | 0.51 |
| K2A | 5.74 |
| L13A | 6.05 |
| K4A | 5.27 |
| R5K F8L | 0.397 |
| E9A | 4.77 |

Block 2
Target: Sal-like protein 4, full length isoform B (SALL4, Homo sapiens, UniProt Q9UJQ4-2, residues 1-616)
Method: universal PBM
Form: double-stranded DNA, one strand shown
Medium: in vitro
Concentration: not given
Notes: 8-mer, flanks averaged, mean of replicates
Reading: higher = stronger binding
| Sequence | E-score |
| --- | --- |
| CTCGTTCC | -0.183 |
| TAAGGTAA | 0.158 |
| GCTAGAAA | 0.0586 |
| CCAGGTGA | -0.206 |
| ACTCGATG | -0.0136 |
| ACACCAGC | -0.245 |
| TCGGCACA | -0.144 |
| GGAACCTA | -0.0151 |

Block 3
Target: HLA class I histocompatibility antigen, A alpha chain, allele A*80:01 (Homo sapiens, UniProt P04439)
Read-out: peptide-MHC binding
Form: peptide
Concentration: concentration not given
| Molecule | binding |
| --- | --- |
| GIALAVPCV | inactive |
| GQMYNMNTL | inactive |
| LNWFEIWIV | inactive |
| YENAVWDQY | inactive |

Block 4
Target: PABPC1L2, full length, GST fusion (mouse, UniProt A0ABA7IW68)
Method: RNAcompete
Form: RNA
Medium: in vitro
Concentration: 20 nM
Notes: 7-mer, probes averaged, single round
Baseline: mean of 7-mers
Reading: higher = stronger binding
Target sequence (chain): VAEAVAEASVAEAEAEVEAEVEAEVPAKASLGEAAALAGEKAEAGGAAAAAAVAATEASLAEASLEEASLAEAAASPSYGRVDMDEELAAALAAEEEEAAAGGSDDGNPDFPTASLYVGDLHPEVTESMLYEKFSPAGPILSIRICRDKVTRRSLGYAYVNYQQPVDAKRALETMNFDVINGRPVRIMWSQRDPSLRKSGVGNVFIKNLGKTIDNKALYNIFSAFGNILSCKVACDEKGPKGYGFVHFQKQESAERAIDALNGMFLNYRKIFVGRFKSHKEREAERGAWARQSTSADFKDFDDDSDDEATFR
| Sequence | 7-mer Z-score |
| --- | --- |
| AUUAACU | -0.213 |
| CAGCUAA | 0.00979 |
| ACUUCUU | -0.22 |
| GCUGACU | -0.0645 |
| UAUUUGU | -0.338 |
| UAGACUG | -0.115 |
| ACGACUC | -0.164 |
| GGUGGCG | 0.0605 |

Excerpt of the above (block 1):
| Substitution | normalised enrichment score |
| --- | --- |
| K2A | 5.74 |
| L13A | 6.05 |
| K4A | 5.27 |
| R5K F8L | 0.397 |
